Measurements of several laboratories.
Numbered parts are unrelated; each lists some results of a single study.
Sequence of UniProt P17948 (whole entry, looked up): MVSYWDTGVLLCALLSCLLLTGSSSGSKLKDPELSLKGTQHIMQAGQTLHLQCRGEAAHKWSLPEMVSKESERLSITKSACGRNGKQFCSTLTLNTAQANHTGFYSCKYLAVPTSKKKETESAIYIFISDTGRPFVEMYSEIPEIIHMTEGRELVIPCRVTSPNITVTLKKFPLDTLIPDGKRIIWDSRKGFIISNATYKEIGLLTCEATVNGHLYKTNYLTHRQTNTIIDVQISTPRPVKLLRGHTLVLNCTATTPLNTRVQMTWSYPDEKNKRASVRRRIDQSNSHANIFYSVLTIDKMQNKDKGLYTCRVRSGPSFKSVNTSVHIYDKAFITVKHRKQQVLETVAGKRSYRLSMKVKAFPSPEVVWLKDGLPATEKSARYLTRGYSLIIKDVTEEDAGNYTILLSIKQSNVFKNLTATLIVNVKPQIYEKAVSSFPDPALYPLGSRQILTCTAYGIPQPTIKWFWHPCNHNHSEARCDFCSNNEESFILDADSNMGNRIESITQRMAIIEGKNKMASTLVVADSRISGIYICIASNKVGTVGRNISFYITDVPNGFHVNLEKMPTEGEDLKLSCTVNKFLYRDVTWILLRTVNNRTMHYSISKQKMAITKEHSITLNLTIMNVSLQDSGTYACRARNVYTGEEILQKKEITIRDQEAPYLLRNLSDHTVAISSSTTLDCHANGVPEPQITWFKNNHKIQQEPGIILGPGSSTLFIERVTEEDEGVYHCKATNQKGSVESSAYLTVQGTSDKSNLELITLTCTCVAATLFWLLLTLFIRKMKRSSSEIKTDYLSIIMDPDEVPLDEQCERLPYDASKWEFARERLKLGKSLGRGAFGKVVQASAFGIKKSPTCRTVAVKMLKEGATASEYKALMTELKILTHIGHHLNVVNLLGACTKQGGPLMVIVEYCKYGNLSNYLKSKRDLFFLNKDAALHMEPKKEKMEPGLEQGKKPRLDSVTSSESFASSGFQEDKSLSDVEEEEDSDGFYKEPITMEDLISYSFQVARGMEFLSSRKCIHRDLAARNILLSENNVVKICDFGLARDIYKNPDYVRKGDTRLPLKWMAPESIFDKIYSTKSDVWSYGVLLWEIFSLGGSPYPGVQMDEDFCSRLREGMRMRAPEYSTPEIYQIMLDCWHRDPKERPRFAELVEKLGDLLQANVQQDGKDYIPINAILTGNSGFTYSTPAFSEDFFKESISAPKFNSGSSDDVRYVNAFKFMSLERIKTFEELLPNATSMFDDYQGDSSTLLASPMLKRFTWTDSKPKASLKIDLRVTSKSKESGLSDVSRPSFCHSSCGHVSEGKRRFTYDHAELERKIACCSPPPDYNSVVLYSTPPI
Sequence of UniProt Q9UF33 (whole entry, looked up): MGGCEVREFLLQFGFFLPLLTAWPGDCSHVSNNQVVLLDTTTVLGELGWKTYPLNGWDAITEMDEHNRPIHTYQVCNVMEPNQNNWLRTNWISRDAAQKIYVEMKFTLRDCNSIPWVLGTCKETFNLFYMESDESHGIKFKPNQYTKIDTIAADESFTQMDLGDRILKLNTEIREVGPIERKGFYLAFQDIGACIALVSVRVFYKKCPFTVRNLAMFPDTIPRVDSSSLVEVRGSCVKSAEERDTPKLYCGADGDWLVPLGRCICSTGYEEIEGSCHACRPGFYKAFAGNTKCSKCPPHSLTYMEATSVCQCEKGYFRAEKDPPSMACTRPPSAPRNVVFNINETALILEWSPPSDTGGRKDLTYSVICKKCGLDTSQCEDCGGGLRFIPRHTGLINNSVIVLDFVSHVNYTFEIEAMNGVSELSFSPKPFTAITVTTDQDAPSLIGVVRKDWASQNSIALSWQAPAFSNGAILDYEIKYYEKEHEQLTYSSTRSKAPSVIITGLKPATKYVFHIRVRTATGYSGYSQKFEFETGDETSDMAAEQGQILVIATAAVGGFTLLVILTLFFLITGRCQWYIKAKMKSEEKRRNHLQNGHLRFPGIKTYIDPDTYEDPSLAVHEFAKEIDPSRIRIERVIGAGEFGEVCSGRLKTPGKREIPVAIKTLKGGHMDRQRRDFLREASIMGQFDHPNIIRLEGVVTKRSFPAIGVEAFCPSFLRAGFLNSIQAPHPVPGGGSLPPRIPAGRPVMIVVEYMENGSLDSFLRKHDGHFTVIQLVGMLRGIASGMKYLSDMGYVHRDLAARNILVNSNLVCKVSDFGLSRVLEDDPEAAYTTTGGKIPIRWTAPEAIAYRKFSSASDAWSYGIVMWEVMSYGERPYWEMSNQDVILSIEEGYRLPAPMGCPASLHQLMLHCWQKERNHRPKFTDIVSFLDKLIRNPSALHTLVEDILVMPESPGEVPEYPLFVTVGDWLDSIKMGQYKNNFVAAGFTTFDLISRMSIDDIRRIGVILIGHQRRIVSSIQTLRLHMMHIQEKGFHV
Sequence of UniProt P23458 (whole entry, looked up): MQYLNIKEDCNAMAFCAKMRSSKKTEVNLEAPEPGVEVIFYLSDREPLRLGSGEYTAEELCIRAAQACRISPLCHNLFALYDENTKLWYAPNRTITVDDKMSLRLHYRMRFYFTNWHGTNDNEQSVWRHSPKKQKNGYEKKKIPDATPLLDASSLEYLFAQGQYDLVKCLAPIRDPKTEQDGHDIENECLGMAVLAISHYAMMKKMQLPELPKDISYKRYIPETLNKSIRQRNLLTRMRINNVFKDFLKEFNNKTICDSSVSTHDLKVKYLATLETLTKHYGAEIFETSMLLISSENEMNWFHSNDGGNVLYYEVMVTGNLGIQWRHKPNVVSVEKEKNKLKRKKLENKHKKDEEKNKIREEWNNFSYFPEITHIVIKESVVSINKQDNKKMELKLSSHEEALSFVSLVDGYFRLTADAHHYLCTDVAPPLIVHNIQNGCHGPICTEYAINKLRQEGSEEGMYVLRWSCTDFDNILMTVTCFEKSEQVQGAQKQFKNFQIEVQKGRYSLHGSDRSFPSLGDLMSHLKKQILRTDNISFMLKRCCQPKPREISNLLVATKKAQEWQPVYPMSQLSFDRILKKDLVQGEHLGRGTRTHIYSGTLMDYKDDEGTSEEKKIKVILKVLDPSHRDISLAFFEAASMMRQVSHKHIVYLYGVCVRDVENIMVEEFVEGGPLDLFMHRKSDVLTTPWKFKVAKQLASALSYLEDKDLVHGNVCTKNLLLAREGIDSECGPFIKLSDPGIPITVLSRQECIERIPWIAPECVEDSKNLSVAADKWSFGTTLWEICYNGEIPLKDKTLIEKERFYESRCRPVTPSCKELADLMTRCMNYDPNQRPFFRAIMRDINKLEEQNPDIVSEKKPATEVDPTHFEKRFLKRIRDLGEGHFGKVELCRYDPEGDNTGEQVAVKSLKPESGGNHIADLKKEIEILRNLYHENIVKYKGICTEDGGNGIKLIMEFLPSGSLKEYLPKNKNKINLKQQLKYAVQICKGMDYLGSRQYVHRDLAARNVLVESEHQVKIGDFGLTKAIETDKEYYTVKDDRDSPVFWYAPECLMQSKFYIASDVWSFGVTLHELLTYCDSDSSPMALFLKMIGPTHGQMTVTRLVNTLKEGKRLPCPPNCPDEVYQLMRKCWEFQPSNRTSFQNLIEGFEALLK
Sequence of UniProt Q14012 (whole entry, looked up): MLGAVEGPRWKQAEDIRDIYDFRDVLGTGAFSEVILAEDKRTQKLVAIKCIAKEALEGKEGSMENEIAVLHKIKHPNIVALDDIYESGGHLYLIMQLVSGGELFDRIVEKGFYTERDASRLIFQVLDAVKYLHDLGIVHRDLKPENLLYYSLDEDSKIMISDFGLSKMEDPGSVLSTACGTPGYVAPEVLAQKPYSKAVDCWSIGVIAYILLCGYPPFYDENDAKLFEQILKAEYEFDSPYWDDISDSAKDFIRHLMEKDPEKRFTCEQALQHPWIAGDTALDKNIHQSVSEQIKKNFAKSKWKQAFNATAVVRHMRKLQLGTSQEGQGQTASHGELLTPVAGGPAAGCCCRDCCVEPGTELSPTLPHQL
Sequence of UniProt P51957 (whole entry, looked up): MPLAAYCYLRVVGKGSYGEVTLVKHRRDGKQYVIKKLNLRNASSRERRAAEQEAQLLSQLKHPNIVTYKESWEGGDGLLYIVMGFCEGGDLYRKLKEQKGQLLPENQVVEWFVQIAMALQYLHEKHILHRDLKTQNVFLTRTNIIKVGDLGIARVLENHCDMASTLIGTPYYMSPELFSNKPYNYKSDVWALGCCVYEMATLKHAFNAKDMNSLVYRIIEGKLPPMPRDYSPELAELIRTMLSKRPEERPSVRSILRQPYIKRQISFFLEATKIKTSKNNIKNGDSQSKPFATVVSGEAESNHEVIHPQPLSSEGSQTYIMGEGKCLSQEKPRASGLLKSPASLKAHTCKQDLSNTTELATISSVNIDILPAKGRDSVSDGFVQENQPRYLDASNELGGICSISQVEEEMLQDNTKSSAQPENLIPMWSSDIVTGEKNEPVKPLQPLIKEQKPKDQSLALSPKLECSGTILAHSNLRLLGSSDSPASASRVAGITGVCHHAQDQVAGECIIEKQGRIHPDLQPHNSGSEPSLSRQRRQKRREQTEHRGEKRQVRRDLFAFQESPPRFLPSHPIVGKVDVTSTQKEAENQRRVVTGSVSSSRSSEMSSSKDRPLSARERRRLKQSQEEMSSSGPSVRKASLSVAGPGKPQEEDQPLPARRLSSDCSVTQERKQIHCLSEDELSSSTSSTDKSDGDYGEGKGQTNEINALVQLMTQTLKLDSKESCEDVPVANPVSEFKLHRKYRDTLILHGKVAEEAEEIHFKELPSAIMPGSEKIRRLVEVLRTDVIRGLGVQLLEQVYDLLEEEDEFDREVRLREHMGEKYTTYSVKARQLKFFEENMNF
Sequence of UniProt P11802 (whole entry, looked up): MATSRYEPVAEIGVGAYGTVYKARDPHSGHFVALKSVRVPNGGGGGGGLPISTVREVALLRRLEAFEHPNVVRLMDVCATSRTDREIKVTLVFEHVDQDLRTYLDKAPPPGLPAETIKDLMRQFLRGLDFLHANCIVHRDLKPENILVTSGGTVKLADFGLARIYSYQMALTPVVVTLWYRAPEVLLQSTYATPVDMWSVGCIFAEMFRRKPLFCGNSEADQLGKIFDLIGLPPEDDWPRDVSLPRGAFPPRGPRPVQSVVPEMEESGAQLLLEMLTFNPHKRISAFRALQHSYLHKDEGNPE

Sample 1
SMILES: COc1cc2c(N3CCN(C(=O)Nc4ccc(OC(C)C)cc4)CC3)ncnc2cc1OCCCN1CCCCC1
Effect on: enzyme activity
Mode: inhibitor
Tested at: 0.5 µM
Relative to: control
target | remaining activity
JAK1 (Homo sapiens, UniProt P23458) | 102%
TEC (Homo sapiens, UniProt P42680) | 89%
Cyclin-dependent kinase 2, with cyclin E (CDK2, Homo sapiens, UniProt P24941) | 96.7%
SRPK1 (Homo sapiens, UniProt Q96SB4) | 98.2%
SIK2 (Homo sapiens, UniProt Q9H0K1) | 98.9%
EPHA6 (Homo sapiens, UniProt Q9UF33) | 103%
EPHA2 (Homo sapiens, UniProt P29317) | 102%
PRKCQ (Homo sapiens, UniProt Q04759) | 103%
IGF1R (Homo sapiens, UniProt P08069) | 97.7%
CAMK1 (Homo sapiens, UniProt Q14012) | 101%
TYRO3 (Homo sapiens, UniProt Q06418) | 101%
CLK2 (Homo sapiens, UniProt P49760) | 80.7%
PAK1 (Homo sapiens, UniProt Q13153) | 107%
FLT1 (Homo sapiens, UniProt P17948) | 99.4%
SGK2 (Homo sapiens, UniProt Q9HBY8) | 105%
CLK1 (Homo sapiens, UniProt P49759) | 72.4%
RPS6KA3 (Homo sapiens, UniProt P51812) | 96.7%

Sample 2
Cell line: HaCaT
Tested at: 100 µM
Time: 36 h
SMILES | viability [%]
CCCCNc1ccc(C(=O)OCCN(C)C)cc1 | 65.8
Cc1ccc2c(Cl)cc(Cl)c(O)c2n1 | 6.26
COc1ccc2c(c1)C(=O)N(CCc1ccc(S(=O)(=O)NC(=O)NC3CCCCC3)cc1)C(=O)C2(C)C | 67.1
CCOC(=O)[C@H](CCc1ccccc1)N[C@H]1CCc2ccccc2N(CC(=O)O)C1=O | 95.5
O=C1NCC2(CCN(CCc3ccccc3)CC2)O1 | 60.4
CCS(=O)(=O)CCn1c([N+](=O)[O-])cnc1C | 93
O=C(O)CCCCCCCC(=O)O | 87.5
CC1(C)S[C@@H]2[C@H](NC(=O)COc3ccccc3)C(=O)N2[C@H]1C(=O)O | 90.5
COc1cccc(N(C)C(=S)Oc2ccc3c(c2)CCCC3)n1 | 83.4
O=C1c2cccc3c2[C@H](CCC3)CN1[C@@H]1CN2CCC1CC2 | 20.8
Cc1ncc([N+](=O)[O-])n1C | 80.3
CS(=O)(=O)Nc1ccc([N+](=O)[O-])cc1Oc1ccccc1 | 92.8
Cc1ccc(Cl)c(Nc2ccccc2C(=O)O)c1Cl | 36.3
COc1ccc([C@@H]2CC(=O)c3c(O)cc(O)cc3O2)cc1O | 77.2

Sample 3
Compound: CCc1ccccc1C(=O)Nc1n[nH]c2c(C)c(F)c(C3C(C#N)=C(C)N(C)C(C)=C3C#N)cc12
Method: competition with immobilised ligand
Tested at: 1 µM
target | test | remaining binding
FLT3 (Homo sapiens, UniProt P36888) | cell-free assay | 16%
CSNK1E (Homo sapiens, UniProt P49674) | cell-free assay | 100%
PKN2 (Homo sapiens, UniProt Q16513) | cell-free assay | 100%
DCLK2 (Homo sapiens, UniProt Q8N568) | cell-free assay | 64%
Myosin-IIIb (MYO3B, Homo sapiens, UniProt Q8WXR4) | binding | 77%
EPHB2 (Homo sapiens, UniProt P29323) | cell-free assay | 76%
FLT3 (Homo sapiens, UniProt P36888, K663Q) | cell-free assay | 13%
Cyclin-dependent kinase 4, with cyclin D3 (CDK4, Homo sapiens, UniProt P11802) | cell-free assay | 75%
CAMK2B (Homo sapiens, UniProt Q13554) | cell-free assay | 73%
MKNK1 (Homo sapiens, UniProt Q9BUB5) | cell-free assay | 100%
Macrophage colony-stimulating factor 1 receptor, autoinhibited (CSF1R, Homo sapiens, UniProt P07333) | cell-free assay | 100%
NEK4 (Homo sapiens, UniProt P51957) | cell-free assay | 100%
EGFR (Homo sapiens, UniProt P00533, L858R/T790M) | cell-free assay | 97%
ERBB4 (Homo sapiens, UniProt Q15303) | cell-free assay | 84%
Tyrosine-protein kinase ABL1, phosphorylated (ABL1, Homo sapiens, UniProt P00519) | cell-free assay | 88%
ROCK2 (Homo sapiens, UniProt O75116) | cell-free assay | 100%
FLT3 (Homo sapiens, UniProt P36888, ITD) | cell-free assay | 11%
PIK3C3 (Homo sapiens, UniProt Q8NEB9) | cell-free assay | 100%
EGFR (Homo sapiens, UniProt P00533, A750P/del747-749) | cell-free assay | 100%
Myosin-IIIa (MYO3A, Homo sapiens, UniProt Q8NEV4) | binding | 68%
RIPK4 (Homo sapiens, UniProt P57078) | cell-free assay | 92%
MYLK2 (Homo sapiens, UniProt Q9H1R3) | binding | 80%
CAMK2G (Homo sapiens, UniProt Q13555) | binding | 79%
FLT1 (Homo sapiens, UniProt P17948) | cell-free assay | 72%
FLT3 (Homo sapiens, UniProt P36888, D835V) | cell-free assay | 3.2%

Further values, each from its own experiment
SMILES | target | test | setting | endpoint | value
C=CCc1ccc(O)c(-c2ccc(O)c(CC=C)c2)c1 | Anoctamin-1 (ANO1, Homo sapiens, UniProt Q5XXA6, del476-501) | chloride current, inhibitor, whole-cell voltage clamp | wild type at 100 mV, together with: 300 nM Ca2+ | Hill slope | 1.14

Repeated from above (sample 1):
target | remaining activity
TYRO3 (Homo sapiens, UniProt Q06418) | 101%
CLK2 (Homo sapiens, UniProt P49760) | 80.7%
CLK1 (Homo sapiens, UniProt P49759) | 72.4%
Cyclin-dependent kinase 2, with cyclin E (CDK2, Homo sapiens, UniProt P24941) | 96.7%
EPHA2 (Homo sapiens, UniProt P29317) | 102%
CAMK1 (Homo sapiens, UniProt Q14012) | 101%
